Measured values of several laboratories.
Each numbered part is a random draw from the data of one study; scales do not carry over between parts.

Study 1 — technique: universal PBM; molecule type: double-stranded DNA, one strand shown; sample: in vitro; tested at: not given; direction: higher = stronger binding; endpoint: E-score
Target: Sal-like protein 4, full length isoform B (SALL4, Homo sapiens, UniProt Q9UJQ4-2, residues 1-616)
Notes: 8-mer, flanks averaged, mean of replicates
Residues (chain): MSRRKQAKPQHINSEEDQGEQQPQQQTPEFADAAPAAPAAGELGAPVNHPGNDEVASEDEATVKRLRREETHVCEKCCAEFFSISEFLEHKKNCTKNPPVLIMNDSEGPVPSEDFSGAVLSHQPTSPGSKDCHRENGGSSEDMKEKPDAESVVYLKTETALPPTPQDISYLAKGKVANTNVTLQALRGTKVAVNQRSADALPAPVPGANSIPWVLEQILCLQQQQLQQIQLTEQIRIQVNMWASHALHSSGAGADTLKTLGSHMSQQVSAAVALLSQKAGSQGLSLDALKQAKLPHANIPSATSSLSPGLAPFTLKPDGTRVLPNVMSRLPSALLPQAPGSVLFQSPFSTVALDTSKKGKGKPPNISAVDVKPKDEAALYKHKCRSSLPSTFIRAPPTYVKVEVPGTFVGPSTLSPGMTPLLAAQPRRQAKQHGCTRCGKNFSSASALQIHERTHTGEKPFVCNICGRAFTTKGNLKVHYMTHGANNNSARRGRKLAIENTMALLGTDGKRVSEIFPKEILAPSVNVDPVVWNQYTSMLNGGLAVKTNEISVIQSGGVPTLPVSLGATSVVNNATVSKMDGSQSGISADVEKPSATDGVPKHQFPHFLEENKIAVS
ATGTTCCG: -0.0579
TACCACCA: 0.0578
AATACCCG: 0.0107
CCGTTGGA: -0.252
CGGGGACC: -0.329
ACTGACGC: -0.196
CTTGACGC: -0.198
CTCAAGGC: -0.198
ACACTTAA: 0.221
AAACCGCG: -0.167
CGCCAACC: -0.185
CGATGGAA: -0.0876
TCATCGAA: 0.101
TACTGACA: 0.0772
GTCAAAGA: 0.163
AGGCAGTC: -0.119
ACGGTCCT: -0.262
GCCAAAAC: -0.0302

Study 2 — Sequence: PQWPCGKHKRVLIFAS; molecule type: peptide; direction: direction not given; endpoint: enrichment score
peptide binding; yeast competitive growth; with: B1-Cln2 chimera: -1.29
Saccharomyces cerevisiae; cell growth, competitive growth deep sequencing; peptide tiling library, with: cyclin F-Cln2 fusion: 0.431
Saccharomyces cerevisiae; binding, competitive growth deep sequencing; cyclin E1-Cln2 fusion strain; peptide tiling library: -0.628
Saccharomyces cerevisiae; binding, yeast competitive growth sequencing; cyclin B2-Cln2 chimera: -1.1
Cln2 (Saccharomyces cerevisiae); peptide binding, competitive growth sequencing; Saccharomyces cerevisiae, unfused Cln2 strain; peptide tiling library: -0.911
Saccharomyces cerevisiae; binding, yeast competitive growth sequencing; cyclin D1-Cln2 strain, peptide tiling library; pooled screen: -2.09
Saccharomyces cerevisiae; pheromone growth arrest, yeast competitive growth sequencing; no Cln2 overexpression; peptide tiling library: -0.105
Saccharomyces cerevisiae; binding, yeast competitive growth sequencing; cyclin B3-Cln2 fusion strain; peptide tiling library: -1.42
human cyclin A2; competitive growth deep sequencing; Saccharomyces cerevisiae, cyclin A2-Cln2 fusion strain; peptide tiling library: -0.361

Study 3 — technique: RNA Bind-n-Seq; molecule type: RNA; sample: in vitro; tested at: 365 nM; relative to: no-protein control; direction: higher = stronger binding; endpoint: RBNS enrichment (R)
Target: RNA binding protein fox-1 homolog 2, RRM domain, GST-SBP tag (RBFOX2, Homo sapiens, UniProt O43251-10, residues 100-194)
Notes: natural RNA segment, single round, ends assumed
Shared flanks, not repeated: GGGAGUUCUACAGUCCGACGAUC … UGGAAUUCUCGGGUGCCAA
Target sequence (chain): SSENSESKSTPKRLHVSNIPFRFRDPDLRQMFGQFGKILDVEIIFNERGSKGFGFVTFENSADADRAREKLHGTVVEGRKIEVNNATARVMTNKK
UAUUUGUGUGUGUGUUCUACCUUUCUACCAUAUGUCAUCAGUUUAAUGGUAACUUUAUUUAUUUAAAAACAAAGAAACACAAAUAGUUACUAUUAAACUGAUUAAGGCUG: 0.463
UAACAUAAAAACUCAUUUUUGUAUUUCUUGGAUUACUUUGACUAUUCUAAUGUUUAAUUACAUAUGGUAACCCUAAGGCCUGGGGAGAAAAGCUUUUAAAUCUUGCCUUC: 0.341
UCACAUGUGAAUUUUCUCUACACAUAGCAAACAUAACUUCAUUUGGCUCUAAGUGUCUGAGGAAUGGAGCUCACAAGAGAGCAAACAACAAAGCUACAGUUAUCUGUCUG: 0.312
CUAAGUGGGUCCUUAUGUACACACCACGUUCACACACACACAGAGGGACCACGUGUGCACGCAUGACCGUGUGGGUGGCGGCGUUUGCUGUGAACCACGCUCAGGCCACA: 1.72
UAGAAACACAAAAUAUUUGAUUUCCUGUGUCGGCUCAGCUACAAGAAACACAACUGUUAUCUUGACAGAGGAAGAGAGGAAUCCAAGAAAAAUGCAUGUGGAGAAUUAAA: 12.5
UGUCUUAAUGCUGAGAAGCAGCAGCUUUGGGGUUGAAUUUACUUGAAUGGUUUAAAAAGAUUGCAUUGUUACAAAGCUAGAAAAAAUUUAUGUAUGAAAAAUGAUCCUAG: 3.13
AGAACCUGGGCCUGGGGCCGGGACUCUGCAUGACUGGGAGCAAGUCACUUAAACCUCCUGUGCCUCGAUUUCCCCCUUCUACAAAGUGGGGCCAAUGAUUCUUGUGUGUC: 2.16
UUGCAUCUGUUACUACUUAGUUUCAUAGGCUUUAAUUCUAGUAUGCAUUAAAUAUUGGGCAAAAUUGCACUUGACUAAUUUUUUGAAGAAAAGUAAUUUAUUCUGUCAAG: 0.5
CCUCUUUGCUGUUUCUCUGGGCUCCUGAGCAUACCAGGGGAAGUUCUAGAAACCGCAGCUGACAUCUCGACCCAAGAGAUUUAGGAUUCUCCUGUUUCAUCUGGGUCAGU: 0.22
CAGUUUUCUCACAGGUCUGCAAUUCUGUUUUUCUCCAAGUACAUUAUGACCCCCUCAUCCUUCUCUUGAACUGGAGAGGGGAAGAAAUGAAAGGCAUGCCCACGUCCGUC: 0.555
UUAUUCCUAUUAUUGUUAUGAACCUUCUUAUUUUACAUUUGAGGGAUAAAGGCAAAUGAUUUGUGAGUCUUCUAGUUACUGGACCGAGUUUUCUGCUGGAUCUGGUGGGA: 0.563
UUAUGAUCAGAGGCAGGAUGUCUGUGAGAUGGUUAGCUAGAGUUAGCAGUGUCCGGGGAGAGUGGCUUUAGACCAGUCAGUACCUUGCUCUUUGUGCAUGGUGCAUGUCA: 1.21

Study 4 — technique: RNA Bind-n-Seq; molecule type: RNA; sample: in vitro; tested at: 200 nM; notes: whole 134-nt RNA, ends assumed; with: 150 mM KCl; relative to: input library; direction: higher = stronger binding; endpoint: log2 enrichment
Target: Ras GTPase-activating protein-binding protein 1, full length (G3BP1, Homo sapiens, UniProt Q13283)
UniProt Q13283, sequence (whole entry, looked up): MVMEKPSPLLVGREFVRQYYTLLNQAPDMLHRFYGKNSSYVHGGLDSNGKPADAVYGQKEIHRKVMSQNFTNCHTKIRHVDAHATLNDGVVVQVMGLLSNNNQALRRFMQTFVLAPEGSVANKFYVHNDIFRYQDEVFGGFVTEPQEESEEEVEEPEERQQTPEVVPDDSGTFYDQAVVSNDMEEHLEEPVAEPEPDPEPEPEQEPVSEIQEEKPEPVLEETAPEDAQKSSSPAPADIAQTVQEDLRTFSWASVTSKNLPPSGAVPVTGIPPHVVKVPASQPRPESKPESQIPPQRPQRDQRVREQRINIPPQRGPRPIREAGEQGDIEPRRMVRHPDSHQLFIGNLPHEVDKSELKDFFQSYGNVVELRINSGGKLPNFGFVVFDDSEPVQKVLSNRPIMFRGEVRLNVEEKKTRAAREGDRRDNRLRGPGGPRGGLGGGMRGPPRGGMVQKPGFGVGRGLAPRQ
Shared flanks, not repeated: GGGAGUUCUACAGUCCGACGAUC … UGGAAUUCUCGGGUGUCAAGG
CCUGUGCUACACAUCGUAUGUACCGAAUCGGGGAGGGGUUUUUUUGGGGAAAAAAAGGGGAAAGUAUUAUGUUACGCCGUUCGGAUCUGC: -0.048
AAGUCCUGUGCUACACAUCGUAUGUACCGAAUCGGUUUUGGGGUUUUGGGUUUUGGAAAGUAUUAUGUUACGCCGUUCGGAUCUGCACUU: -0.943
GUGCUACACAUCGUAUGUACCGAAUCGGGGUUUUUUUGGGGAAAAAAAGGGGUUUUUUUGGGGAAAGUAUUAUGUUACGCCGUUCGGAUC: -0.274
CUGUGCUACACAUCGUAUGUACCGAAUCAAAUUUUUUUAAACCCCCCCAAACCCCCCCAAAAAAGUAUUAUGUUACGCCGUUCGGAUCUG: -0.0956
CUCAAGUCCUGUGCUACACAUCGUAUGUACCGAAUCGGGUUUGGGUGGGAGGGAAAGUAUUAUGUUACGCCGUUCGGAUCUGCACUUCCA: 1.32
CCUCAAGUCCUGUGCUACACAUCGUAUGUACCGAAUCGGGUUGGUUGGUUGGGAAAGUAUUAUGUUACGCCGUUCGGAUCUGCACUUCCA: -0.28
UCCUGUGCUACACAUCGUAUGUACCGAAUCAAAGUGUGUGUGUGUGUGUGUGUGUGUAAAAAAGUAUUAUGUUACGCCGUUCGGAUCUGC: 0.894
UCCUGUGCUACACAUCGUAUGUACCGAAUCAAAUUUUUUUAAAUUUUUUUAAAUUUAAAAAAGUAUUAUGUUACGCCGUUCGGAUCUGCA: -0.793
CCCAUCAUGUUCAGAGGUGAGGUCCGUCUGAAUGUCGAAGAGAAGAAGACUCGAGCUGCCAGGGAAGGCGACCGACGAGAUAAUCGCCUU: -1.02
AAGUCCUGUGCUACACAUCGUAUGUACCGAAUCGGGAGGGAAAGGGAAAAAAAGGGAAAGUAUUAUGUUACGCCGUUCGGAUCUGCACUU: -0.0639
UCCCUGAAUCACCGACUGGAGGAGAGUUACCUACAAGAGCCUUCAUCCAGGAGCAUCCACACUGCAAUGAUAUAGGAAUGAGGUCUGAAC: 0.525
CCUGUGCUACACAUCGUAUGUACCGAAUCGGCCCCCCGGGGCCCCCCGGGGCCCCCCGGGGAAAGUAUUAUGUUACGCCGUUCGGAUCUG: -0.945
UCAAGUCCUGUGCUACACAUCGUAUGUACCGAAUCGGUUUUUGGUUUUUGGUGGAAAGUAUUAUGUUACGCCGUUCGGAUCUGCACUUCC: -0.953
CCUGUGCUACACAUCGUAUGUACCGAAUCAAAUUUUUUUAAAUUUUUAAACCCCCCCAAAAAAGUAUUAUGUUACGCCGUUCGGAUCUGC: 0.0415

Study 5 — technique: protein-binding microarray; molecule type: double-stranded DNA, one strand shown; sample: in vitro; tested at: 250 nM; notes: 60-bp whole probe; with: salmon DNA 0.4 mg/ml; relative to: random background probes; direction: higher = stronger binding; endpoint: log fluorescence; shared flanks, not repeated: GCCTAGCAC … GTCTTGATTCGCTTGACGCTGCTG
Target: Interferon regulatory factor 7, full length, phosphomimetic (IRF7, Homo sapiens, UniProt Q92985, residues 1-503, S101K/S471D/S472D/S475D/S476D/S477D/S483D/S484D/S487D)
UniProt Q92985, sequence (whole entry, unmodified, looked up): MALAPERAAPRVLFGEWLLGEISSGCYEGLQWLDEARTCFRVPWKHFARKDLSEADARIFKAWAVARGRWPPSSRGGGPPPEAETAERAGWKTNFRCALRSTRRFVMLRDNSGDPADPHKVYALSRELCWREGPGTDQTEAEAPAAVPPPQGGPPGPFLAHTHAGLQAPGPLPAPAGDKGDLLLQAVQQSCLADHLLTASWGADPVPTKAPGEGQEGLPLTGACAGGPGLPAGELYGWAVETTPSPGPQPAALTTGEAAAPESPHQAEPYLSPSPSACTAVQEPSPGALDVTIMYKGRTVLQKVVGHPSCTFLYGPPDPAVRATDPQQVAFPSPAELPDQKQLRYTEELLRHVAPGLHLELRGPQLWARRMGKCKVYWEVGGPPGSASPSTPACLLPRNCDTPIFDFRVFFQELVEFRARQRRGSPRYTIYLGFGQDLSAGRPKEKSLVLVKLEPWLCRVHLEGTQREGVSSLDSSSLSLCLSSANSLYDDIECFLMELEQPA
TGGTAATTCTTTGCTCATTTTGTGCTA: 0.52 z-score
CTTTAACTCATTCTCTGTTTGTGCTAG: 1.89 z-score
TTAGGACTGGACTATCGGTTGGTGCTA: -0.352 z-score
TTAGGACTGGACATTCGGTTAGTGCTA: 0.0505 z-score
CATTGCTTGTGTTTATTGTGGTGCTAG: -0.154 z-score
ATATGTGTATATATAATATAGTGCTAG: -0.058 z-score
GACGGTCCCCTTTTCCTGACGTGCTAG: 1.45 z-score
TCAAGTATTTTTTTCCAACTGTGCTAG: 0.568 z-score
TCACTTTGCCTTTTGCTACTGTGCTAG: 0.973 z-score
TCATCACTCTGTCCCTCACTGTGCTAG: 0.159 z-score
TTAGGTCTCGGACTGGGTCAGTGCTAG: 0.224 z-score
TTAGGTATCCTTCTCCTTAAGTGCTAG: 1 z-score
ATAGGTTTCCTTCTCCTTTAGTGCTAG: 2.21 z-score
TAGGCTCCAGGTTCTCTGAAGGTGCTA: -0.25 z-score
TTAGGTATCCGTCTCGGTTAGTGCTAG: 0.478 z-score
TTAGATCTCAGGATCGATTAGTGCTAG: 0.426 z-score
TACGATTCCAGTTTCGAGACGTGCTAG: 4.87 z-score
GTTGAGTTCTGTTGCAAAGGGTGCTAG: -0.432 z-score
TGAGGTCTCCTACTGCTTTAGTGCTAG: -0.592 z-score
GACGGTTTCAGTCTCGGGACGTGCTAG: 1.77 z-score
GACGGTTTCGGACTGGGGATGTGCTAG: 4.1 z-score
TGGACTGCACAAGGGCCAGTGTGCTAG: -0.414 z-score
TCACCTTTCTCCATGGGACTGTGCTAG: 1.31 z-score
TTAGGTATCGGGACTTGGTTAGTGCTA: -0.012 z-score
TTAGGACTGGGGTTTCGGTCAGTGCTA: 0.966 z-score

Repeated from above (study 2):
Saccharomyces cerevisiae; binding, yeast competitive growth sequencing; cyclin D1-Cln2 strain, peptide tiling library; pooled screen: -2.09
peptide binding; yeast competitive growth; with: B1-Cln2 chimera: -1.29
Saccharomyces cerevisiae; binding, competitive growth deep sequencing; cyclin E1-Cln2 fusion strain; peptide tiling library: -0.628
Cln2 (Saccharomyces cerevisiae); peptide binding, competitive growth sequencing; Saccharomyces cerevisiae, unfused Cln2 strain; peptide tiling library: -0.911
Saccharomyces cerevisiae; pheromone growth arrest, yeast competitive growth sequencing; no Cln2 overexpression; peptide tiling library: -0.105
